Experimental data of several laboratories.
Compare with care: the assays were run in different laboratories. Several values in a cell are separate wells, animals, samples, runs or records. ± gives the spread as reported.
Nuclear receptor subfamily 2 group C member 2 ligand-binding domain: Nuclear receptor subfamily 2 group C member 2, ligand-binding domain (Homo sapiens, UniProt P49116)
Sequence of UniProt P49116 (whole entry, looked up): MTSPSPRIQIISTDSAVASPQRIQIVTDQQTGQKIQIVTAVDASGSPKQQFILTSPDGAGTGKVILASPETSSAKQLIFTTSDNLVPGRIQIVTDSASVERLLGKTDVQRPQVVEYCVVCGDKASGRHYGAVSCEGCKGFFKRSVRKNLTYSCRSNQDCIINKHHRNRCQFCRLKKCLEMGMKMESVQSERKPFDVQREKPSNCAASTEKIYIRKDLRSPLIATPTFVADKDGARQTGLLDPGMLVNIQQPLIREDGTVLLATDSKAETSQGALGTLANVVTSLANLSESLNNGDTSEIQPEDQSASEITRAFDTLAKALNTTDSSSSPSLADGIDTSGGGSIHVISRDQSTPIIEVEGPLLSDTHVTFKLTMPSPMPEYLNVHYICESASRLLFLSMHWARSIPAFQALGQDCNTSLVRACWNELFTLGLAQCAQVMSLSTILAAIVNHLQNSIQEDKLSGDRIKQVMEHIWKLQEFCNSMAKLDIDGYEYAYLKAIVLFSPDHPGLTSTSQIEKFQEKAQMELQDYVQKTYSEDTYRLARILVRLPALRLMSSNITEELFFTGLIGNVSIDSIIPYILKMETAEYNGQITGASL

Nc1ccn([C@@H]2O[C@H](CO)[C@@H](O)[C@H]2O)c(=O)n1 — Kd (Nuclear receptor subfamily 2 group C member 2 ligand-binding domain; SPR imaging): 34.8 pM
Cc1cc(Nc2cc3ncccc3c(N[C@@H]3C[C@H]4CC[C@@H](C3)N4CCC#N)n2)n[nH]1 — sneezing incidence (healthy human subjects; oral, 300 mg, 14 days, multiple ascending dose): 0%
Nc1nc(=S)c2[nH]cnc2[nH]1 — viability (OCI-Ly1; 1 µM, 120 h): 8.55%
C=CC(=O)NC1CCN(c2ncc3ncnc(Nc4ccc(Oc5ccc6c(c5)ncn6C)c(C)c4)c3n2)CC1 — participants with grade 2 presyncope (human, male; oral, 240 mg, treatment-emergent adverse event): 6.3%
O=C1c2ccncc2C(=O)c2c1[nH]c1ccccc21 — oral bioavailability (Sprague-Dawley rat, male, plasma; oral, 1 mg/kg; baseline: intravenous AUC(0-t)): 26%
Cn1cc(Nc2nc(N)nc(-c3cccc(-n4ccc5cc(C6CC6)cc(F)c5c4=O)c3CO)n2)cn1 — drug-related vomiting incidence (healthy humans, fed; oral tablet, 150 mg twice daily (multiple dose), 14 (unit not given); baseline: subjects): 0%
CCN1/C(=C/C(C)=O)Sc2ccc(F)cc21 — systolic blood pressure (cynomolgus monkey; oral, 30 mg/kg, 6 h post-dose): 115 ± 6 mmHg
CN(C)[C@@H]1C(O)=C(C(N)=O)C(=O)[C@@]2(O)C(O)=C3C(=O)c4c(O)cccc4[C@@](C)(O)[C@H]3C[C@@H]12 — amount permeated (starch gel membrane permeability; Gram-negative envelope surrogate; 200 µM, 90 min, pH 7.4): 3.9 nmol
O=C1CCc2c(ccc3ccccc23)O1 — viability (OCI-Ly1; 1 µM, 120 h): 148%
CC(C)(C(=O)N1CCOc2c(C#N)cncc2C1)C(F)F — subjects with TEAE (item: abnormal urine odour; human, both sexes; oral, 10 mg once daily, 14 days, multiple ascending dose): 12.5%
CCc1nc(C(N)=O)c(Nc2ccc(N3CCC(N4CCN(C)CC4)CC3)c(OC)c2)nc1NC1CCOCC1 — accumulation ratio (AUC) (Japanese patients, plasma; oral, 120 mg, cycle 1 day 28, multiple doses, median; baseline: single dose): 7.97
Cc1ccc([C@@H]2O[C@H](CO)[C@@H](O)[C@H](O)[C@H]2O)cc1Cc1ccc(-c2ccc(F)cc2)s1 — urinary calcium excretion change (Japanese type 2 diabetes patients; 100 mg, day 18, 24 h urine collection; baseline: baseline): 4.34 mg
CC(C)(C)c1ccc(O)c(CN(Cc2cc(C(C)(C)C)ccc2O)C2CCC(NC(N)=O)CC2)c1 (centres unmarked) — elimination rate constant (C57BL/6 mouse, male, plasma; oral, 10 mg/kg): 6.94e-05 s⁻¹
CCO[C@H]1CCN(Cc2c(OC)cc(C)c3[nH]ccc23)[C@H](c2ccc(C(=O)O)cc2)C1 — incidence of back pain (PNH patients, active haemolysis; oral, 200 mg, 8 weeks, treatment): 0%
Cn1cncc1[C@@](N)(c1ccc(Cl)cc1)c1ccc2c(c1)c(-c1cccc(Cl)c1)cc(=O)n2C — accumulation index (human, plasma; oral, 200 mg/m^2, cycle 1 first dose; baseline: AUC(0-inf) over AUC(0-12h)): 1.23 and 1.03 and 1.06 and 1.19 and 1.56 and 1.02
O=C(O)/C=C/c1ccc(O)cc1 — plasma concentration (human plasma; median): 84.5 nM
O=C(c1cccnc1-c1ccncc1)N1CCC(O)(Cc2ccccc2)CC1 — AUClast (healthy Japanese adults, plasma; oral, 300 mg twice daily, day 21): 2020 ng·h/mL
O=C(O)c1ccc(O)c(OS(=O)(=O)O)c1 — plasma concentration (human plasma; mean): 77.2 nM
NC1(C(=O)N[C@@H](CCO)c2ccc(Cl)cc2)CCN(c2nc[nH]c3nccc2-3)CC1 — incidence of Neutropenia (metastatic CRPC patients; 400 mg b.i.d., grade 3 to 4, treatment-related, with: enzalutamide 160 mg daily): 0%
CCCCC[C@H](O)CC[C@@H]1[C@H]2Cc3cccc(OCC(=O)O)c3C[C@H]2C[C@H]1O — geometric mean AUC(0-inf) (LC-MS/MS; male Japanese PAH patients, plasma; inhaled, 54 µg): 0.91 ng·h/mL
CC(C)NC[C@H](O)COc1ccc(CCOCC2CC2)cc1 — Kd (Nuclear receptor subfamily 2 group C member 2 ligand-binding domain; SPR imaging): 12 pM
O=C(O)C(O)Cc1ccc(O)cc1 (centres unmarked) — plasma concentration (human plasma; median): 9270 nM
CCn1cc(C(=O)O)c(=O)c2ccc(C)nc21 — amount permeated (starch gel membrane permeability; Gram-negative envelope surrogate; 200 µM, 20 min, pH 7.4): 1.96 nmol

A few entries again:
O=C(O)/C=C/c1ccc(O)cc1 — plasma concentration (human plasma; median): 84.5 nM
